Published values collected from several papers.
Each numbered part is a random draw from the data of one study; scales do not carry over between parts. Substitutions count along the parent as printed.

Series 1
Target: CCNB1, cyclin fold, Cln2 fusion (human)
Method: yeast growth competition, sequencing
Medium: yeast
Setting: weak parent motif
Baseline: not given
Direction: higher = stronger binding
Starting sequence: SCAPER docking peptide (human); SNARRSLNFGGST
Variant	normalised enrichment score
SNARRSLNFGGSA [T13A]	0.422
SNARWSLNFGGST [R5W]	0.0779
SSARRSLNFGGST [N2S]	0.723
SNARRSLNFCGST [G10C]	0.308
SNARRSLNWGGST [F9W]	0.904
SNARRSLNPGGST [F9P]	0.624
SNARRSLNFGGSY [T13Y]	0.0824
SNARRSLRFGGST [N8R]	0.717
SNNRRSLNFGGST [A3N]	1.06
SNARRSLNFSGST [G10S]	0.149

Series 2
Target: Sal-like protein 4, full length isoform B (SALL4, Homo sapiens, UniProt Q9UJQ4-2, residues 1-616)
Method: universal PBM
Form: double-stranded DNA, one strand shown
Medium: in vitro
Concentration: not given
Setting: 8-mer, flanks averaged, mean of replicates
Direction: higher = stronger binding
Strand	E-score
ACGGGGTC	-0.253
CCCTACGA	-0.0578
CAAGCGTC	-0.21
CCAATGCG	-0.12
AGTGGAGA	-0.0146
CTTACGGA	-0.161
ACGTTCCC	-0.114
GCATCTAC	0.0326
CGAGCAAA	-0.162
ACATGAGC	-0.0103
ACACGGCC	-0.204
ACAGATGA	0.109
AACAGCAT	0.106
CTTACACC	-0.135
GAACTACC	0.0103
ATCCGACG	-0.146

Series 3
Target: ABI1, truncated, D143A, DHFR fusion (Arabidopsis thaliana)
Method: DHFR PCA, deep sequencing
Medium: yeast
Setting: methotrexate growth selection, single substitutions
With: (+)-ABA 0 µM
Baseline: wild-type fitted maximum
Direction: higher = stronger binding
Starting sequence: PYL1, truncated, DHFR fusion (Arabidopsis thaliana); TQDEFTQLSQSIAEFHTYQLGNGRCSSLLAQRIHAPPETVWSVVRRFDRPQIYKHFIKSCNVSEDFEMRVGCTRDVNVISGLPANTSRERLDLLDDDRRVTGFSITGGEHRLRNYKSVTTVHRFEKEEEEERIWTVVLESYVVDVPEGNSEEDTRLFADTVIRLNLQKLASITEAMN
Variant	relative binding score [%]
L169M	-1.43
L29A	-4.14
T39Y	7.86
R69S	14
W134N	10.5
S104H	-6.69
Q31K	13.8

Single results of other studies
Molecule	target	assay	test system	conditions	scale	endpoint	result
PhoQ, residues 284 288 289 292 302 303 TAVSDG	PhoP, residues 12 14 15 18 19 NQFFI (Escherichia coli, UniProt P23836)	Sort-seq, item: YFP reporter	E. coli	PhoQ-PhoP variant library, with: 10 µM Mg2+	baseline: high Mg2+ state, higher = stronger signaling	fold induction	9.11

Some of these lines once more (series 3):
Variant	relative binding score [%]
Q31K	13.8
R69S	14
